Values quoted from earlier work that unrelated publications cite.
Compare with care: the assays were run in different laboratories.

Structure (SMILES) | method | refers to | medium | notes | pKa
O=C(O)C(F)(F)F | literature value, method not stated |  |  |  | 0.52
NCc1ccc(S(N)(=O)=O)cc1 |  | sulfonamide group |  |  | 10.1
NCCCC[C@H](N)C(=O)O |  |  |  |  | ~10
Cc1cc(=O)oc2cc(O)ccc12 |  |  |  |  | ~8
CCS(=O)(=O)O | literature value |  |  | vs non-fluorinated acids | -1.68
CC(O)C(C)n1ncn(-c2ccc(N3CCN(c4ccc(OCC5COC(Cn6cncn6)(c6ccc(Cl)cc6Cl)O5)cc4)CC3)cc2)c1=O (stereo not drawn) |  |  |  | Simcyp input parameter | 3.8
CC(O)c1cc(C(=O)N[C@@H](C)Cn2ccc(-c3ccc(C#N)c(Cl)c3)n2)[nH]n1 (stereo partly drawn) |  |  |  | monoprotic base | 2.4
O=C(O)CN1CCN(CC(=O)O)CCN(Cc2cccc(C(=O)O)n2)CC1 |  |  | free ligand | aliphatic carboxylate, first deprotonation | 2.2
Cn1cncc1[C@@](N)(c1ccc(Cl)cc1)c1ccc2c(c1)c(-c1cccc(Cl)c1)cc(=O)n2C |  |  |  | ionisation site 1 | 6.1
N=C(N)N |  |  |  | literature value | > 13
COc1ccc(Cl)cc1C(=O)NCCc1ccc(S(=O)(=O)NC(=O)NC2CCCCC2)cc1 | NMR |  | phospholipid bilayer membrane |  | ~7
NS(=O)(=O)c1ccccc1 |  | sulfonamide group |  |  | 10
CC(C)(C)NCC(O)c1cc(O)cc(O)c1 (stereo not drawn) |  |  |  |  | 9.67
O=C(NO)c1ccc(F)cc1 |  |  |  | hydroxamic acid | 8.81
O=C(O)c1cc(Cl)ccc1O |  |  |  |  | 2.68
CC(C)(C)c1cc(C(C)(C)C)c(NC(=O)c2c[nH]c3ccccc3c2=O)cc1O |  |  |  | diprotic acid | 11.6
C=CC(=O)N1C[C@H](Nc2ncnc3[nH]ccc23)CC[C@@H]1C |  |  |  |  | 4.85
N=C(N)NCCC[C@H](N)C(=O)O |  |  |  |  | ~12
Cc1ncc(C[n+]2csc(CCO)c2C)c(N)n1 |  |  |  |  | ~4.8
CNC(=C[N+](=O)[O-])NCCSCc1ccc(CN(C)C)o1 |  |  |  |  | 8.7
CCCCCCCCCCCCOS(=O)(=O)O |  |  |  |  | -1.5

Some of these lines once more:
Structure (SMILES) | method | refers to | medium | notes | pKa
CC(C)(C)NCC(O)c1cc(O)cc(O)c1 (stereo not drawn) |  |  |  |  | 9.67
CC(O)c1cc(C(=O)N[C@@H](C)Cn2ccc(-c3ccc(C#N)c(Cl)c3)n2)[nH]n1 (stereo partly drawn) |  |  |  | monoprotic base | 2.4
